Assay results collected from several papers.

NCCONC(=O)[C@@H]1CC[C@@H]2CN1C(=O)N2OS(=O)(=O)O  adverse event incidence (refers to: Mild severity; healthy Chinese men; intravenous, 1 g, treatment-related): 37.5%
O=C1CCc2ccc(OCCCCN3CCN(c4cccc(Cl)c4Cl)CC3)cc2N1  adverse event incidence (refers to: Xerostomia; genotyped patients, CYP2D6 intermediate metabolizers; dose not given, long-acting oral or depot): 12%
Cc1c(C(=O)O)ccc2c3n(nc12)[C@@H]1[C@H](C3)N(CC2CC2)[C@@]2(C(=O)Nc3cc(Cl)ccc32)[C@H]1c1cccc(Cl)c1F  adverse event incidence (phase Ia trial, refers to: Thrombocytopenia; cancer patients; oral, dose not given): 32%
CC[C@H](C)[C@H](NC(=O)[C@H](Cc1ccccc1)NC(=O)[C@H](CCC(=O)O)NC(=O)[C@H](CCCCNC(=O)COCCOCCNC(=O)COCCOCCNC(=O)CC[C@H](NC(=O)CCCCCCCCCCCCCCCCC(=O)O)C(=O)O)NC(=O)[C@H](C)NC(=O)[C@H](C)NC(=O)[C@H](CCC(N)=O)NC(=O)CNC(=O)[C@H](CCC(=O)O)NC(=O)[C@H](CC(C)C)NC(=O)[C@H](Cc1ccc(O)cc1)NC(=O)[C@H](CO)NC(=O)[C@H](CO)NC(=O)[C@@H](NC(=O)[C@H](CC(=O)O)NC(=O)[C@H](CO)NC(=O)[C@@H](NC(=O)[C@H](Cc1ccccc1)NC(=O)[C@@H](NC(=O)CNC(=O)[C@H](CCC(=O)O)NC(=O)C(C)(C)NC(=O)[C@@H](N)Cc1cnc[nH]1)[C@@H](C)O)[C@@H](C)O)C(C)C)C(=O)N[C@@H](C)C(=O)N[C@@H](Cc1c[nH]c2ccccc12)C(=O)N[C@@H](CC(C)C)C(=O)N[C@H](C(=O)N[C@@H](CCCNC(=N)N)C(=O)NCC(=O)N[C@@H](CCCNC(=N)N)C(=O)NCC(=O)O)C(C)C  adverse event incidence (refers to: Nasopharyngitis; type 2 diabetes patients; dose not given; baseline: subjects): 20%
CC(=O)O[C@H]1C(=O)[C@@]2(C)[C@H]([C@H](OC(=O)c3ccccc3)[C@]3(O)C[C@H](OC(=O)[C@H](O)[C@@H](NC(=O)c4ccccc4)c4ccccc4)C(C)=C1C3(C)C)[C@]1(OC(C)=O)CO[C@@H]1C[C@@H]2O  adverse event incidence (refers to: blood alkaline phosphatase increased; patients with advanced solid tumours; intravenous, dose not given, grade 1 and 2, possibly related to drug): 11%
Cc1cc(Nc2ccc(S(F)(F)(F)(F)F)cc2)n2nc(C(C)(F)F)nc2n1  adverse event sinus bradycardia (Plasmodium vivax malaria patients; oral, 600 mg): 0%
FC(F)(F)c1ccc(CNc2ccc(Cc3c[nH]c4ncc(Cl)cc34)cn2)cn1  adverse events, all grades (refers to: decreased appetite; patients with advanced solid tumours; oral, dose not given, phase Ib, related to compound): 30%
Cc1ccc(Sc2ccccc2N2CCNCC2)c(C)c1  adverse event incidence (TEAE Diarrhea; elderly women; oral, 10 mg single dose): 12.5%
